# Results of several laboratories.
# Parts stem from different laboratories: compare values within a part only.

# Block 1
# Target: Interferon regulatory factor 5, full length, phosphomimetic (IRF5, Homo sapiens, UniProt Q13568-2, residues 1-514, S451D/S453D/S456D/S462D)
# Technique: protein-binding microarray
# Molecule type: double-stranded DNA, one strand shown
# Matrix: in vitro
# Concentration: 940 nM top
# Setting: 60-bp whole probe
# Added: salmon DNA 0.4 mg/ml
# Baseline: random background probes
# Direction: higher = stronger binding
# Shared flanks, not repeated: GCCTAGCAC … GTCTTGATTCGCTTGACGCTGCTG
Sequence,fitted relative affinity [z-score]
TCATTACTTTCTATCTCACTGTGCTAG,3.26
GACGGTTTAGGGACTGGGGACGTGCTA,-0.0415
GAGTGTTTCTTCTGCTGACAGTGCTAG,0.994
GACGGCATCGGGACTGGGGACGTGCTA,-0.381
GACCATATCAGTATCGAGACGTGCTAG,2.16
GACGGACTGGGTTTCGGTACGTGCTAG,5.94
GACGGTATTGGGTATCGGGACGTGCTA,1.79
TTAGATTTCGGGTTTCGATCAGTGCTA,5.13
GACGGACTGGGTCTCGGGAAGTGCTAG,-0.23
GACGATATCAGTCTCGTGACGTGCTAG,-0.0591
GACGGTTCCGGGTTCGGGACGTGCTAG,1.13
TTAGGTATCGGTCTCGGATAGTGCTAG,9.76
GACGGTTTCCTTCTCCTGCCGTGCTAG,1.33
GACGGACTGGGGTTTCGTGACGTGCTA,0.765
TTAGGTTTCGGGTTTTGGTTAGTGCTA,9.23
GACGGTTTCGTTTCCGGGACGTGCTAG,8.31
TTAGAAATGAGTATCGATTAGTGCTAG,4.6
TTAGGTTTCCTTTCCTTTTAGTGCTAG,2.12
TTAGATATCAGTCTTGATTAGTGCTAG,-0.0421
TTAGGTTTCGGTTTCGGTTTGTGCTAG,17.1
TCATCTCTCTTAAATAGGACTGTGCTA,1.04
TCAAAAATCCCATTAAAACTGTGCTAG,0.22
TTAGGGCTCGGTTTCGGTTAGTGCTAG,7.62
TTAGGTATCGGGACTTGGTTAGTGCTA,3.83
GACGATTTCAGTTCGGAGACGTGCTAG,0.221

# Block 2
# Target: RNA binding protein fox-1 homolog 2, RRM domain, GST-SBP tag (RBFOX2, Homo sapiens, UniProt O43251-10, residues 100-194)
# Technique: RNA Bind-n-Seq
# Molecule type: RNA
# Matrix: in vitro
# Concentration: 365 nM
# Setting: natural RNA segment, single round, ends assumed
# Baseline: no-protein control
# Direction: higher = stronger binding
# Residues (chain): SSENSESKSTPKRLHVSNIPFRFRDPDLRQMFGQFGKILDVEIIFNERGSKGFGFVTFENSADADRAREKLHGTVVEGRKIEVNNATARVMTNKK
Sequence,RBNS enrichment (R)
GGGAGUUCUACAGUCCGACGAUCGGGGGAUUUAAAGGGAAGGAGUGGGCAAAACACAUAAAAUGAAUUUAUUAUAUCUAAGCUCUGUAGCAGGAUUCAUGUCGUUCUUUGACAGUUCUUUCUCUUUCCUGUAUUGGAAUUCUCGGGUGCCAA,0.62
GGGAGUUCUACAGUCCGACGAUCGUAACAAUGUAUAAAUAGUGGCUUUUCUGUACAAAAGGUUGUAAUGCCUCCUGAUGGAUAUAAUUUUGUGAUUGUAUUUAAAAGUUGAAUAAAUCACACCAGCUUCCUGAUGGAAUUCUCGGGUGCCAA,1.46
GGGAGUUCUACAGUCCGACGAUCGGUGAAUGUGAGGCUUCUACUUUUAUCCAAAAGGAGCUAUAUUAGCUAGGCUGUUUCUGAUAUCCAAUCAUUGGUUUAACAAUAAAGGCAAUUUGUUUAAUCAGUUAACGUGGAAUUCUCGGGUGCCAA,1.13
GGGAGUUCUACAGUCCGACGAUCUCUAAUGGUCCUUUAAAAAUGUCUGUAUUAAAAUUUAAGAAUACCACACUUUAAUAUUAAAUAUCAUAAGGUCUAGUAUCUUGAUAAUAAUGUAGAUGUUUUAAUAACAAUGGAAUUCUCGGGUGCCAA,0.376
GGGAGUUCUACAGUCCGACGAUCCAUGGCUCUCAGACCGCGUUCCUCUUUGGCCUUCCUUCCAGCCGAGCCGUCACCAUAAGUAAAUCAAGUCCCUUCCUCCCAGUCACACGGCUGAGCGCAGACGGCUUGUUUGGAAUUCUCGGGUGCCAA,0.286
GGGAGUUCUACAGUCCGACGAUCAUCAAAGGACAUUUUUACUUUCUUGGAUUUAGAGCCAACAACUAGGAACGUACUUAUGUAGGACAGAGGUUAGCAACCUGUGGGUCAUGACCCCUUUGGGGAUCAAACUAUGGAAUUCUCGGGUGCCAA,0.291
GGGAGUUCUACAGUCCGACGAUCGAGGGAGGGUUUAUCACUGCUUAACUUCAUCUUCAUGAAAUGAAACUUUGUAACUUAUUGUAGUUAGAAAUUGUAACUUUGAUAUUGAAUUCUCUUGCCUUCAACAAGCAUGGAAUUCUCGGGUGCCAA,0.625
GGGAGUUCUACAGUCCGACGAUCUAGUUUUUGAAAUUUUUAUUUAUAUGUAUACUUAGAUGAGUAUUUUAAGCUGUCGACCUUUAGUUUGCCAUACGGGUAGGACUGUAUUUCAUGUUAACAACUGGUGGUAAUGGAAUUCUCGGGUGCCAA,1.18
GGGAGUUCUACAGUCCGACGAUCUUCUCCCUGCUUCAGUCUCCAGAGAACAUAAAUGGCCAAAAAUGUUAAGUCUGGCUAUAUUUGAAGGUUAUGACAUAAAGCCAGCAGCUUUAAUGGCUUUUAUGAAGUGAUGGAAUUCUCGGGUGCCAA,0.502
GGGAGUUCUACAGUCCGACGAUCCCAAGCUCUCUAGAGCAUCUGGACACAUGUUAACAAGCAUAGCCACUGACCUUAACCACAACCAUUAGCCAGAAGAUACUGCAUGCUCCCUUGUGUCUGGAGUAUUCUGUUGGAAUUCUCGGGUGCCAA,0.62
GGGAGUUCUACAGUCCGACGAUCCACCCCCUUUUCAAAAAUUGAAAACUCUAUGAGUGUCUUUUUGAGACCAUAAAGCAGACUUUAGUAACUUUCUAUUUCUGUAAGUACUAAAUGUCUGGCAUUUUAAACUUUGGAAUUCUCGGGUGCCAA,0.389
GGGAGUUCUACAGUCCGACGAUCGAAAGAGAGGAAGAGAGAAGCAAACAUGUAGGAAAAAAUAUAAAUCAGCCCCAUUCUCCCAUUCUUUAAGAACAAUGAUUUUUCUUGAUGGAAAAUGCAUAUCACUUGACUGGAAUUCUCGGGUGCCAA,0.6

# Block 3
# Target: Ras GTPase-activating protein-binding protein 1, C-terminal RGG region (G3BP1, Homo sapiens, UniProt Q13283)
# Chain of UniProt Q13283 (whole entry, looked up): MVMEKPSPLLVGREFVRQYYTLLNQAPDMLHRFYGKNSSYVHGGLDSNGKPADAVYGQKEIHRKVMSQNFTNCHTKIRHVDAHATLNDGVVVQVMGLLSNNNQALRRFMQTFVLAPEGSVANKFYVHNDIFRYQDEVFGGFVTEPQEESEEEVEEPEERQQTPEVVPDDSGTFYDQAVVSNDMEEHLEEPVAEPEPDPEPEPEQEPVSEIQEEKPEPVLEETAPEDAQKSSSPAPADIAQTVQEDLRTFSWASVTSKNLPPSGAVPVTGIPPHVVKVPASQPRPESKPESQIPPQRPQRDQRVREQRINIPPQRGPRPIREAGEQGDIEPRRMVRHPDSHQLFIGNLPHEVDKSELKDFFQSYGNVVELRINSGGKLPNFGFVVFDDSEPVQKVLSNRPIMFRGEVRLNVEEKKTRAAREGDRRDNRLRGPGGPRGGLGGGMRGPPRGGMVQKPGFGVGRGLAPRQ
# Technique: RNA Bind-n-Seq
# Molecule type: RNA
# Matrix: in vitro
# Concentration: 1 µM
# Setting: whole 134-nt RNA, ends assumed
# Added: 150 mM KCl
# Baseline: input library
# Direction: higher = stronger binding
Sequence,log2 enrichment
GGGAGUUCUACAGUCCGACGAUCACCAUGCAGAUGGGCAUCUUUGGGAAGUGGGGCAAGGGGGGGAUAGGGAGGGGGGUAACACUUUGGGAACAGGUGGUCCCAGGUCGUUUCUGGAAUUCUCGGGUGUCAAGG,-0.947
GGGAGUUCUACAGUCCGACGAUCCACAGACAACACGCAAACACACAGACACAGAGGGAAGGGGUUGGGAUGGGGACAGGGUGCACAGCAGGGCGGGGUAGGACCCCAGCCCCUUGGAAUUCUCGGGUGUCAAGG,-0.342
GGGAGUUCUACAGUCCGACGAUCCACAGACAACACGCACCCACACAGACACAGAGGGAAGGGGUUGGGAUGGGGACAGGGUGCACAGCAGGGCGGGGUAGUACCCCAGCCCCUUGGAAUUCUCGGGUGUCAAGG,-0.817
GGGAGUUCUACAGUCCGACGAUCGCAGGAAGUAACAACAAAUGGAAAUGCUUCGGAUAGUGGCAGGGGUGGGGGUUGCUAAGGAAAGGGUGGGAUGGGAGUGGGUAAAGAGUUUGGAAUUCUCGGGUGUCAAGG,1.85
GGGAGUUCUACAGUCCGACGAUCAAGUCCUGUGCUACACAUCGUAUGUACCGAAUCAAACCCAAACCCAAACCCCCAAAAAAGUAUUAUGUUACGCCGUUCGGAUCUGCACUUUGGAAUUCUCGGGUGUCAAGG,-1.15
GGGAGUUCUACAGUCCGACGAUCUAUUCCAAUGUCUGUGGGAAUAAUUGACACAAGGACGAAUCCAAGCCAGUUAAAUGCGGUUGAAUUUCUGUGGGACCCAGCAAAACGCACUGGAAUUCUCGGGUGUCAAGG,0.525
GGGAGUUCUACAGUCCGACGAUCUGGCCCUGGUGGCAUGCGGGGAGGAAGAGGUGGCCUCAUGGAUCGUGGUGGUCCCGGUGGAAUGUUCAGAGGUGGCCGUCGUGGAGACAGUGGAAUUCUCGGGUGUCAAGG,2.42
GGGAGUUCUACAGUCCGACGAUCCACAGACAGCACGCACCCACACAGACACAGAGGGAAGGGGUUGGGAUGGGGACAGGGUGCACAGCAGGGCGGGGUAGGACCCCAGCCCCUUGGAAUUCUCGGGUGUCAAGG,-0.47
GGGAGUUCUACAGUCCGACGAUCCACAGACAACACGCACCCAUACAGACACAGAGGGAAGGGGUUGGGAUGGGGACAGGGUGCACAGCAGGGCGGGGUAGGACCCCAGCCCCUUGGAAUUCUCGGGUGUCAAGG,0.162
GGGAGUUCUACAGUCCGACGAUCUCCUGUGCUACACAUCGUAUGUACCGAAUCAAACCCAAACCCCCCCAAAUUUUUUUAAAAAAGUAUUAUGUUACGCCGUUCGGAUCUGCAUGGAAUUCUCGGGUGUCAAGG,-0.62

# Block 4
# Target: Hepatocyte nuclear factor 3-alpha (Foxa1, Mus musculus, UniProt P35582, residues 1-468, full length assumed)
# Chain of UniProt P35582 (whole entry, looked up): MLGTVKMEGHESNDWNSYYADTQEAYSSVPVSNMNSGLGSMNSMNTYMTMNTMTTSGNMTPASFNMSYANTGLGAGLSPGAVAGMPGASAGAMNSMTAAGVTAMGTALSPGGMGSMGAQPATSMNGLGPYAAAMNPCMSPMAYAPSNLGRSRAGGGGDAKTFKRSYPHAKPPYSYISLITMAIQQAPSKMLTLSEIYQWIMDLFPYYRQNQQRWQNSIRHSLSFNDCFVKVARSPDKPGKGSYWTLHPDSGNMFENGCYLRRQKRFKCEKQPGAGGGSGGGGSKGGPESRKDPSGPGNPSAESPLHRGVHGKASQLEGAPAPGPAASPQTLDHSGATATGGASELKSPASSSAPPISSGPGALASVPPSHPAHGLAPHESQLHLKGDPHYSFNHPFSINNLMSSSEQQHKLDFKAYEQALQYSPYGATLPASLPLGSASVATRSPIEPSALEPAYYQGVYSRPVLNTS
# Technique: EMSA with sequencing
# Molecule type: double-stranded DNA, one strand shown
# Matrix: in vitro
# Concentration: 10 and 20 nM
# Setting: whole designed probe, mean of two concentrations, ends assumed
# Baseline: negative control set to 0
# Direction: higher = stronger binding
Sequence,normalised bound fraction [ratio]
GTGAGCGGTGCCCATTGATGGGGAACTCTGGGTCATTTCCTTTTCTGGATTTAACTATTCAAAAGTCGGGGCCAGAGATACAGGAAAGTAGAGGCAGAGATCTTATTTATCGAAGTGTATGTTGGCATAGAAATTATCCTTAATCACTACTCCAGTTAGACCTTGTTCAGTCTGATGTTAGTGGTCTTTGCAGAGGATACTATATACAGTTTCCTCAAATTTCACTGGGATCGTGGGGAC,0.0194
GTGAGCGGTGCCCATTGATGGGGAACAAATTCTGCAATTACATCACCTCATCTGCACCTGATGAATAAAAATAAATTATTTCAAAGTTTTAAAAAGTGCAACAATGATTTGCAAGACAGAGTAAACATACAGTAAAGGTTTTAATTCCTGAGACTTAAGTTGGATAGGTCTAGATTTTCATCAAGGAAAACAAAAGTATGATGTTAAATTCAAATTCTATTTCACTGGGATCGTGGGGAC,0.247
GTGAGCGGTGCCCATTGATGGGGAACACTCTCTCACGCTCACATGCACCTTCAGTTTTTCCCTTGCTGTCCCCCCATATGGGAGGAAGAGAAGATGTCTCCAGAAGTGTGAGCAGAGTAAGTAATCTTGGAGAGTTTGTGATGCTTTGGTGACAATTACCTCTCCTTTCTGCTTCTGGCTGCTGTGGTTCCAGATGGTGGAAACGTTCCGTCCGATTCTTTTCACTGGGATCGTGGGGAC,-0.0919
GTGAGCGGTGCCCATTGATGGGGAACGGCAGGCCTTGCCTTCTGCACTTACATGTCCCAAGAGGCATCAGCCTGCCCGCTGAAATCCGAAGCCACATAATGTCAACACAGTACTCCTGTGTAAATATCTGGTCCAGGGAAAATGCCTTGAACGCTTGTACAACCAATTTTCTGGCAGGCAGTGAGATGAAAAGGAGAATTAATGCATGCATTAAAATAATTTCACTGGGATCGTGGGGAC,0.4
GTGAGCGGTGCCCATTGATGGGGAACCCTGGCTGTGTGCTAATGGACAGGAGAAGAACTTGGATTTTGATAGCTTCTATATTACTTATAATTGTGTACAAAAAATTACATTTATTGCCCTAGATTACTTTTATGTTTATGAGCTTACTTGTTCAATGTCCCTCAACTGAAAGTGCATCTCAAAATGAGATTTATGAATTTGTACATTTGAGTTCTGTGTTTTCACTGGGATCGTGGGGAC,0.0232
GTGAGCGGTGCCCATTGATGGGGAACATCTTCCCCCTCTTCCTTGCCCCACCAGCTCACCTTCCCGGGTATATTGGAGATAGGAAATTAATATAAGCCGGCATTCGTTAACCCTCTTCTGGCGCAAACTGCTGTTTGCTCTGGATGAATCATGGTCCTTTGGCGACGCCAGGCTCCGGGAGAGCAAAGCACCGTGTCAGGGCCATGATCCGGGGTGGCCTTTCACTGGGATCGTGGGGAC,0.109

# A few entries again (block 1):
Sequence,fitted relative affinity [z-score]
GAGTGTTTCTTCTGCTGACAGTGCTAG,0.994
GACGGCATCGGGACTGGGGACGTGCTA,-0.381
GACCATATCAGTATCGAGACGTGCTAG,2.16
GACGGACTGGGTTTCGGTACGTGCTAG,5.94
